# Values quoted from earlier work, collected from citations in different studies.
# Each numbered part shows a few of the values that one paper quotes. Several values in a cell are separate wells, animals, samples, runs or records.
# Chain of UniProt Q9H2G2 (whole entry, looked up): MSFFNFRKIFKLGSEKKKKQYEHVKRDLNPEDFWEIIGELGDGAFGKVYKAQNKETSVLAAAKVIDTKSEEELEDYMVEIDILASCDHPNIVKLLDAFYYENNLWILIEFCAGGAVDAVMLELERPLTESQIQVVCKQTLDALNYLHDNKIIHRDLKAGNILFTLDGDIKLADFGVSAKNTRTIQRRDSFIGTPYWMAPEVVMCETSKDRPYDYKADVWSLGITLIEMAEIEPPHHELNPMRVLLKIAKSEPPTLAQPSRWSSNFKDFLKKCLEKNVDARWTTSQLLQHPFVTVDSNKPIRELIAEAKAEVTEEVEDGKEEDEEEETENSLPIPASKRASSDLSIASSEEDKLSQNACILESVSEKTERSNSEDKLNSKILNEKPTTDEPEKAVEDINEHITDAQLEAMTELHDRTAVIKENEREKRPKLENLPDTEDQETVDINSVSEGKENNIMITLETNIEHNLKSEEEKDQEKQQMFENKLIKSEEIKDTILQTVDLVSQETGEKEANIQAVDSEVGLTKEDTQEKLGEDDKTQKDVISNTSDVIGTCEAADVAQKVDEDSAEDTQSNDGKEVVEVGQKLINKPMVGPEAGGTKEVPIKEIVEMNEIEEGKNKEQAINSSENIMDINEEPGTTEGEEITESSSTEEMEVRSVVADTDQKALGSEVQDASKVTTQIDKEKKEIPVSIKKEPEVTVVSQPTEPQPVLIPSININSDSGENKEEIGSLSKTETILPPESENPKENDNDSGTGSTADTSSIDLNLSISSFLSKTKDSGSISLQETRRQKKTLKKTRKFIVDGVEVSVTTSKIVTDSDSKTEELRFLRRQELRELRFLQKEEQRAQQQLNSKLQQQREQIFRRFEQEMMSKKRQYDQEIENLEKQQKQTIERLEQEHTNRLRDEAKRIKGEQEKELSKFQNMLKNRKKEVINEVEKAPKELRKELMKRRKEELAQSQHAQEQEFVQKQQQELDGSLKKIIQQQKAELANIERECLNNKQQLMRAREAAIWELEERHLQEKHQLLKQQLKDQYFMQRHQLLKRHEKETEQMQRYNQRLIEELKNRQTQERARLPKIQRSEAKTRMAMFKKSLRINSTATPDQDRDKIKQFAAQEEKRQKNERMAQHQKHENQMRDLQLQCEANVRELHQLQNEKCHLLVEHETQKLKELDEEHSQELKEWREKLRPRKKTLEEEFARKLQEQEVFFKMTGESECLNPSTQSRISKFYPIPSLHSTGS
# Chain of UniProt Q8NEB9 (whole entry, looked up): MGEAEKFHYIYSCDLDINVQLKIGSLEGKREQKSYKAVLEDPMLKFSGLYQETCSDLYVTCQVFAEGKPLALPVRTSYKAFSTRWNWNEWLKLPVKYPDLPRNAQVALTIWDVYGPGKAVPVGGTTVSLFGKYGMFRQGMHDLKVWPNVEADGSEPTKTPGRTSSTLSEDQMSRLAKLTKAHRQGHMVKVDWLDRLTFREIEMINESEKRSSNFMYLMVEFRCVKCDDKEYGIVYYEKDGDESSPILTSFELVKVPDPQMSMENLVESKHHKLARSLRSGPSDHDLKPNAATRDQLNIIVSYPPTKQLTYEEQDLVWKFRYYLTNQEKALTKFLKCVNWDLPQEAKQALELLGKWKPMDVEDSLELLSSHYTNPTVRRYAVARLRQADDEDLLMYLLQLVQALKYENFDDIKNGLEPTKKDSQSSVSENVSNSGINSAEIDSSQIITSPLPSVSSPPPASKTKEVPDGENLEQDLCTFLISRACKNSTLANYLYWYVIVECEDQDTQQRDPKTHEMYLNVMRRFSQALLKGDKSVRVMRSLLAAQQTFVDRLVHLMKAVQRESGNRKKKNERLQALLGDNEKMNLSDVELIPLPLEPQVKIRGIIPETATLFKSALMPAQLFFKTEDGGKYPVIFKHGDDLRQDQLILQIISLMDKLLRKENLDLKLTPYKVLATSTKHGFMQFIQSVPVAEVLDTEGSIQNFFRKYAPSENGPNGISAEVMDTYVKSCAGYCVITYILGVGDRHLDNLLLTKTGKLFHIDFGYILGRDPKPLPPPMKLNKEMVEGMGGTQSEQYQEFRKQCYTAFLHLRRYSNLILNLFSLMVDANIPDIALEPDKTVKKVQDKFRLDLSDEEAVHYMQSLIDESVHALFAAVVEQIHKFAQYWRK
# Chain of UniProt O00750 (whole entry, looked up): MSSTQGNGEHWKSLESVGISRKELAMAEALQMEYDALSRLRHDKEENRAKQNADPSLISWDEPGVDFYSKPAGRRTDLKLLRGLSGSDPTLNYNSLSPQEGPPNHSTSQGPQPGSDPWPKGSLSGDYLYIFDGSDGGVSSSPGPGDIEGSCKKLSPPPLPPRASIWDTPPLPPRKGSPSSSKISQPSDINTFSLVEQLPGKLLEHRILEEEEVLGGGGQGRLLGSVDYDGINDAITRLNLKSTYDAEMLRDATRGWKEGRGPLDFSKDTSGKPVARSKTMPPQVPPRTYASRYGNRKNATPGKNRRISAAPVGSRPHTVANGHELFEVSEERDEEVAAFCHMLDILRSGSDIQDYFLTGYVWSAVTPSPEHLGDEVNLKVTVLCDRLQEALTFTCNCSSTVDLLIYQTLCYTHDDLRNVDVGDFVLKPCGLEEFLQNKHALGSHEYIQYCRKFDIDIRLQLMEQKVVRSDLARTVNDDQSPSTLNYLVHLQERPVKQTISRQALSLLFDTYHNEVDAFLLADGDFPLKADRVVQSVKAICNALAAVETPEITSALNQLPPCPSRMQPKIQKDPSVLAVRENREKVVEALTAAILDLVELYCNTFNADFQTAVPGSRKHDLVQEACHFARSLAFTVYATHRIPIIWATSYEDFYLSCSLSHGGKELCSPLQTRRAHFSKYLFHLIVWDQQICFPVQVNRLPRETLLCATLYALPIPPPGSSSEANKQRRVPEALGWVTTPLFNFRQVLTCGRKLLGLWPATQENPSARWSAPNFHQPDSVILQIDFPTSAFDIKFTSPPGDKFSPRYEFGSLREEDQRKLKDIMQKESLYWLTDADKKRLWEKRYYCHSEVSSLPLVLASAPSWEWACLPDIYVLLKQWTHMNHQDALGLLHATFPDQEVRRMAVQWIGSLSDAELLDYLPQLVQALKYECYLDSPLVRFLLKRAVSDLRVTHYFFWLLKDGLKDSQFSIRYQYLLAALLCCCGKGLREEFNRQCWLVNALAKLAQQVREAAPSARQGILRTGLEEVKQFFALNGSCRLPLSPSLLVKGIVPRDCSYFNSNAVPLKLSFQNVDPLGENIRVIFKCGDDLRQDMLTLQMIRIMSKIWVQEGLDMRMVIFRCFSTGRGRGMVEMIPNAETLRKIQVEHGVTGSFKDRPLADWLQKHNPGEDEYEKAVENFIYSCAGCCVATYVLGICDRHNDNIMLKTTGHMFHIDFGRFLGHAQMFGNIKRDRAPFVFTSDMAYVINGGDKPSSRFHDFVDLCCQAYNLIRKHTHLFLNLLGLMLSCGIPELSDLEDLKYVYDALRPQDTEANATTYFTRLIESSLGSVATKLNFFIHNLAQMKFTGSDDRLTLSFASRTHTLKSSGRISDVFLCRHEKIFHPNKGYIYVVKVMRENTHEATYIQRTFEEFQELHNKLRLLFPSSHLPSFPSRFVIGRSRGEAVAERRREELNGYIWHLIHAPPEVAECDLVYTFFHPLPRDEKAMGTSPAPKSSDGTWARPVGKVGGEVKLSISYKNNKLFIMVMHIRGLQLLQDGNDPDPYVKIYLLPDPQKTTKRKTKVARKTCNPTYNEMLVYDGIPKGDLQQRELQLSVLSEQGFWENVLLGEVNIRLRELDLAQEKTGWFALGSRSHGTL

# Sample 1 — Compound: CN(C)CC/C=C1/c2ccccc2Sc2ccc(Cl)cc21; cell line: MCF7; concentration: concentration not given
method,refers to,time,baseline,fold change
"microarray, Connectivity Map",INSIG1 mRNA,6 h,DMSO,2.09
microarray,SQSTM1 mRNA,,DMSO,1.32
microarray,CALHM2 mRNA (probe 57715_at),,vehicle (DMSO),1.54
"microarray, Connectivity Map",LPIN1 mRNA,6 h,DMSO,2.43

# Sample 2 — organism: Plasmodium falciparum; concentration: concentration not given
Structure (SMILES),activity
CN1CCC(=C2c3ccccc3C=Cc3ccccc32)CC1,active
O=C(CCNNC(=O)c1ccncc1)NCc1ccccc1,active
CCOC(=O)C1=C(C)NC(C)=C(C(=O)OC)C1c1cccc(Cl)c1Cl (stereo not drawn),active
CCCC1O[C@@H]2C[C@H]3[C@@H]4CCC5=CC(=O)C=C[C@]5(C)[C@H]4[C@@H](O)C[C@]3(C)[C@]2(C(=O)CO)O1 (stereo partly drawn),active
CN1CCC(=C2c3ccccc3CC(=O)c3sccc32)CC1,active
NS(=O)(=O)c1cc(C(=O)O)c(NCc2ccco2)cc1Cl,active
O=C1CN(/N=C/c2ccc(-c3ccc([N+](=O)[O-])cc3)o2)C(O)=N1,active
COc1ccccc1N1CCN(CCCNc2cc(=O)n(C)c(=O)n2C)CC1.Cl,active
CSc1ccc2c(c1)N(CCC1CCCCN1C)c1ccccc1S2 (stereo not drawn),active
COc1ccc(Cl)cc1C(=O)NCCc1ccc(S(=O)(=O)NC(=O)NC2CCCCC2)cc1,active
CN1CCN(C2=Nc3ccccc3Oc3ccc(Cl)cc32)CC1,active
CC(C)(C)NC[C@H](O)COc1nsnc1N1CCOCC1,active
CC(CCc1ccccc1)NCC(O)c1ccc(O)c(C(N)=O)c1 (stereo not drawn),active
O=C(c1ccc(OCCN2CCCCC2)cc1)c1c(-c2ccc(O)cc2)sc2cc(O)ccc12,active
Cc1nc2n(c(=O)c1CCN1CCC(c3noc4cc(F)ccc34)CC1)CCCC2,active
CCCCc1oc2ccccc2c1C(=O)c1cc(I)c(OCCN(CC)CC)c(I)c1,active
CC(C)c1ccc2c(c1)c(SC(C)(C)C)c(CC(C)(C)C(=O)O)n2Cc1ccc(Cl)cc1,active
CNCCC(Oc1ccc(C(F)(F)F)cc1)c1ccccc1.Cl (stereo not drawn),active
CC(C)[N+](C)(CCOC(=O)C1c2ccccc2Oc2ccccc21)C(C)C,active
COc1cc2nc(N3CCN(C(=O)c4ccco4)CC3)nc(N)c2cc1OC,active
COc1ccc([C@@H]2Sc3ccccc3N(CCN(C)C)C(=O)[C@@H]2OC(C)=O)cc1,active
CN(C)CCC=C1c2ccccc2COc2ccccc21,active
CC(C)NCC(O)COc1cccc2ccccc12.Cl (stereo not drawn),active
CN(C)CC[C@@H](c1ccc(Cl)cc1)c1ccccn1,active
Oc1ccc(/C=C/c2cc(O)cc(O)c2)cc1,active

# Sample 3 — target: dopamine transporter
Structure (SMILES),IC50
CN(C)CCC=C1c2ccccc2CCc2ccccc21,6200 nM
Cc1ccnc2c1NC(=O)c1cccnc1N2C1CC1,> 10000 nM
Oc1ncnc2[nH]ncc12,> 10000 nM
Cc1[nH]cnc1CN1CCc2c(c3ccccc3n2C)C1=O,> 10000 nM

# Other studies, line by line
SMILES,target or system,assay,test system,conditions,scale,quantity,result
C[C@H]1COCCN1c1nc(-c2cnc(N)cc2C(F)F)nc(N2CCOCC2)n1,A498,,,,,GI50,128 nM
C=CC(=O)N1CCC(C(=O)NCC(=O)N2CCN(c3nc(-c4cnc(N)nc4C(F)F)nc(N4CCOCC4)n3)CC2)CC1,"Phosphatidylinositol 3-kinase catalytic subunit type 3 (PIK3C3, Homo sapiens, UniProt Q8NEB9)",kinase activity,,1 µM,,remaining activity,4.5%
N[C@@H](CC(=O)O)C(=O)O,,,,carboxylate group,,pKa,~3.9
CCC(C)(C)C(=O)C(=O)N1CCC[C@H]1C(=O)OCCCc1cccnc1,FKBP12,"peptidyl-prolyl isomerase activity, inhibitor",,,,Ki,7.5 nM
O=C(C1CCCCC1)N1CC(=O)N2CCc3ccccc3C2C1 (stereo not drawn),Schistosoma mansoni,,"adult, infected mice","oral, 1 × 100 mg/kg",,worm burden reduction,18%
CN/C(=N/CCSCc1nc[nH]c1C)NC#N,SLC22A8,substrate,,,,Km,162 µM
CNc1ccc(-c2nc3ccccc3s2)cc1,amyloid-beta aggregates,"binding, radioligand binding",,,,Ki,19.5 nM
Cc1c(CN2CCN(C(=O)[C@H](C)O)CC2)sc2c(N3CCOCC3)nc(-c3cnc(N)nc3)nc12,"Phosphatidylinositol 4-phosphate 3-kinase C2 domain-containing subunit beta (PIK3C2B, Homo sapiens, UniProt O00750)",KinomeScan competition binding,,10 µM,,remaining binding,31%
O[C@]1(C(F)(F)F)CCCC[C@H]1Nc1ccc(F)cc1,PGR,"binding, radioligand binding Eurofins-Panlabs",,,,Ki,4000 nM
Nc1cc(C(F)(F)F)c(-c2nc(N3CCOCC3)nc(N3CCOCC3)n2)cn1,"STE20-like serine/threonine-protein kinase (SLK, Homo sapiens, UniProt Q9H2G2)",enzyme activity,,10 µM,baseline: untreated,remaining activity,96%
CC(O)C(C)n1ncn(-c2ccc(N3CCN(c4ccc(OCC5COC(Cn6cncn6)(c6ccc(Cl)cc6Cl)O5)cc4)CC3)cc2)c1=O (stereo not drawn),,,plasma,,,unbound fraction,0.0212
CN1C(=O)[C@@H](N2CCc3c(nn(Cc4ccccc4)c3Br)C2=O)COc2ccccc21,RIPK1 (human),cellular activity,,,,IC50,1.3 nM
CC1(C)NC(=O)N(c2ccc(F)c(C(C)(F)F)c2)C1=O,Schistosoma mansoni,,"juvenile, infected mice","oral, 100 mg/kg single dose",,worm burden reduction,89% and 62 to 100%
CCN(CC)CC.CCN(CC)CC.O=c1ccn([C@]23C[C@H]2[C@H](COP(=O)(O)OP(=O)(O)O)[C@@H](O)[C@H]3O)c(=O)[nH]1,P2Y14 receptor,,,concentration not given,,activity,inactive
FC(F)(F)c1ccc2c(c1)nc(-c1cccnc1)n2C1CC1,CYP11B2 (human),cellular activity,,,,IC50,> 10000 nM
N[C@@H]1c2cccnc2[C@H](OC(=O)N2CCC(n3c(=O)[nH]c4ncccc43)CC2)CC[C@H]1c1cccc(F)c1F,CYP2C9 (human),,human liver microsomes,,,IC50,> 40000 nM
O=C(N1CCS(=O)(=O)CC1)N1C[C@H](c2ccc(OC(F)(F)F)cc2)C[C@H](c2nc(C3CC3)no2)C1,F2R,biochemical activity,,,,IC50,56 nM
COc1ccc2nc([S@@+]([O-])Cc3ncc(C)c(OC)c3C)[nH]c2c1,,,Japanese non-obese humans,"intravenous bolus, 20 mg racemic omeprazole",,Cmax,964 ng/mL

# Excerpt of the above (sample 2):
Structure (SMILES),activity
CCCC1O[C@@H]2C[C@H]3[C@@H]4CCC5=CC(=O)C=C[C@]5(C)[C@H]4[C@@H](O)C[C@]3(C)[C@]2(C(=O)CO)O1 (stereo partly drawn),active
CC(C)NCC(O)COc1cccc2ccccc12.Cl (stereo not drawn),active
O=C1CN(/N=C/c2ccc(-c3ccc([N+](=O)[O-])cc3)o2)C(O)=N1,active
CN(C)CCC=C1c2ccccc2COc2ccccc21,active
CCCCc1oc2ccccc2c1C(=O)c1cc(I)c(OCCN(CC)CC)c(I)c1,active
COc1cc2nc(N3CCN(C(=O)c4ccco4)CC3)nc(N)c2cc1OC,active
COc1ccc(Cl)cc1C(=O)NCCc1ccc(S(=O)(=O)NC(=O)NC2CCCCC2)cc1,active
CN(C)CC[C@@H](c1ccc(Cl)cc1)c1ccccn1,active
